Measurements gathered from unrelated publications.
Numbered parts are unrelated; each lists some results of a single study. Substitutions count along the parent as printed.

Series 1
Target: Ras GTPase-activating protein-binding protein 1, C-terminal RGG region (G3BP1, Homo sapiens, UniProt Q13283)
Chain of UniProt Q13283 (whole entry, looked up): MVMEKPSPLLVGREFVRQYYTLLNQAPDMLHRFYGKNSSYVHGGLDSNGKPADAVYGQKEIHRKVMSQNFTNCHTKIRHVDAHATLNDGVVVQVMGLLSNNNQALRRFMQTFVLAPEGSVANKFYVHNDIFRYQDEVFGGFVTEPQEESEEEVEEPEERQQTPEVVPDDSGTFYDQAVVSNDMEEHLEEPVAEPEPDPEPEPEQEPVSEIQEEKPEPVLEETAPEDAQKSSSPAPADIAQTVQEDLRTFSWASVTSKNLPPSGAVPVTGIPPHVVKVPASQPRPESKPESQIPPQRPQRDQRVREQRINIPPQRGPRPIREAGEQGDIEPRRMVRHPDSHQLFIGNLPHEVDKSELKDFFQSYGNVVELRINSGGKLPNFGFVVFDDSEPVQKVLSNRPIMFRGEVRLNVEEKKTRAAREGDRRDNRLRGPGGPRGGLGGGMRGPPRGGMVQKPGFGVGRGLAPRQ
Technique: RNA Bind-n-Seq
Molecule type: RNA
Sample: in vitro
Concentration: 1 µM
Notes: whole 134-nt RNA, ends assumed
Added: 150 mM KCl
Reference: input library
Reading: higher = stronger binding
Measurement: log2 enrichment
All sequences stand within: GGGAGUUCUACAGUCCGACGAUC … UGGAAUUCUCGGGUGUCAAGG
UGGGGGGUGGAUUUUGUUUAUUUUUUUAGCUCAUUUCCAGGGGUGGGAAUUUUUUUUUAAUAUGUGUCAUGAAUAAAGUUGUUUUUGAAA: 3.88
GUCCUGUGCUACACAUCGUAUGUACCGAAUCGGGGUUUUUUUGGGGAAAGGGGAGGGGAAAGUAUUAUGUUACGCCGUUCGGAUCUGCAC: 1.99
AGUCCUGUGCUACACAUCGUAUGUACCGAAUCGGGGAAAAAGGGGUUUGGGGAGGGGAAAGUAUUAUGUUACGCCGUUCGGAUCUGCACU: 3
CAAGUCCUGUGCUACACAUCGUAUGUACCGAAUCAAAUUUAAAUUUAAACCCAAAAAAGUAUUAUGUUACGCCGUUCGGAUCUGCACUUC: -0.718
CACAGACAACACGCACCCACACAGACACAGAGUGAAGGGGUUGGGAUGGGGACAGGGUGCACAGCAGGGCGGGGUAGGACCCCAGCCCCU: -0.171
GUCCUGUGCUACACAUCGUAUGUACCGAAUCGGGAAAAAGGGUUUUUGGGUUUUUGGGAAAGUAUUAUGUUACGCCGUUCGGAUCUGCAC: -0.442
CACAGACAACACGCACCCACACAGACACAGAGGGAAGGGGUAAAGAUGGGGACAGGGUGCACAGCAGGGCGGGGUAGGACCCCAGCCCCU: -0.15
CAAGUCCUGUGCUACACAUCGUAUGUACCGAAUCGGGGAAAGGAAAGGAAAGGGGAAAGUAUUAUGUUACGCCGUUCGGAUCUGCACUUC: -1.45

Series 2
Target: CCNF, cyclin fold, Cln2 fusion (human)
Technique: yeast growth competition, sequencing
Sample: yeast
Notes: strong parent motif
Reference: not given
Reading: higher = stronger binding
Measurement: normalised enrichment score
Starting sequence: RBL2 docking peptide (human); STTRRRLFVENDS
STVRRRLFVENDS [T3V]: 10.1
STTRRDLFVENDS [R6D]: 0.379
STTRERLFVENDS [R5E]: -0.522
STTRRREFVENDS [L7E]: 0.302
STTRRRLFFENDS [V9F]: 9.74
STTTRRLFVENDS [R4T]: 2.74
STTRRRLSVENDS [F8S]: 1.76
STTFRRLFVENDS [R4F]: 4.8

Series 3
Target: Histone acetyltransferase KAT6A, winged helix 2, GST fusion (KAT6A, Homo sapiens, UniProt Q92794, residues 85-181)
Technique: protein binding microarray
Molecule type: double-stranded DNA, one strand shown
Sample: in vitro
Concentration: not given
Notes: 8-mer, flanks averaged, mean of 2 arrays, mostly near background
Reference: not given
Reading: higher = stronger binding
Measurement: E-score
Residues (chain): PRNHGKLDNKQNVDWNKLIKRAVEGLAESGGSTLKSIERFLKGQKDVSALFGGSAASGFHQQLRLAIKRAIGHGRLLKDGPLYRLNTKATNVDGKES
CGATGAGA: -0.0194
GAGGTCAA: -0.0251
AATGTGGT: -0.129
ACCGCCTC: 0.186
CTCTGAGA: -0.139
GGATTTCA: 0.078
CGAAAAAC: 0.0426
AATCCCGC: 0.13

Other studies, line by line
Starting sequence: PafA, mature enzyme, eGFP fusion (Elizabethkingia meningoseptica, UniProt Q9KJX5); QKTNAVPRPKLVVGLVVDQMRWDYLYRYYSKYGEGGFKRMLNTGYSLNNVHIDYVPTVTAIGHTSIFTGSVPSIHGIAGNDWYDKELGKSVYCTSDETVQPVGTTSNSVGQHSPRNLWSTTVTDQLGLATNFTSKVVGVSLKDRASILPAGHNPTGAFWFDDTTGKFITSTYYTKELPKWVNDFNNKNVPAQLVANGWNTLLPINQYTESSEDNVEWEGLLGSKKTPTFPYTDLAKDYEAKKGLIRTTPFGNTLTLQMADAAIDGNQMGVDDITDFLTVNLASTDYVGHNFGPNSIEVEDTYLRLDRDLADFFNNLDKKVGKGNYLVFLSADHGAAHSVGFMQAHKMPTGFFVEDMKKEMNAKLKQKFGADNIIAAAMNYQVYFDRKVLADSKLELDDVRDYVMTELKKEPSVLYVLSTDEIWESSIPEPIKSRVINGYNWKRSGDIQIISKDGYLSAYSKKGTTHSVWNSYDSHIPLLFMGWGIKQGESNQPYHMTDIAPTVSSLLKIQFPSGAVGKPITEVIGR
E410V  oxyanion analog dissociation constant (vanadate, free oxyanion; microfluidic competitive inhibition; in vitro, cell-free expressed; not given, derived from inhibition constants, unchanged parent 676 nM; lower = stronger binding): 778 nM

Excerpt of the above (series 1):
CAAGUCCUGUGCUACACAUCGUAUGUACCGAAUCAAAUUUAAAUUUAAACCCAAAAAAGUAUUAUGUUACGCCGUUCGGAUCUGCACUUC: -0.718
CACAGACAACACGCACCCACACAGACACAGAGUGAAGGGGUUGGGAUGGGGACAGGGUGCACAGCAGGGCGGGGUAGGACCCCAGCCCCU: -0.171
